Assay results of several laboratories.
Every numbered part comes from another study and shows a few of its results, in no order. Positions count from the first letter of the parent shown.

Block 1
Target: Histone acetyltransferase KAT6A, winged helix 2, GST fusion (KAT6A, Homo sapiens, UniProt Q92794, residues 85-181)
Technique: protein binding microarray
Molecule type: double-stranded DNA, one strand shown
Medium: in vitro
Tested at: not given
Notes: 8-mer, flanks averaged, mean of 2 arrays, mostly near background
Reference: not given
Reading: higher = stronger binding
Quantity: E-score
Target sequence (chain): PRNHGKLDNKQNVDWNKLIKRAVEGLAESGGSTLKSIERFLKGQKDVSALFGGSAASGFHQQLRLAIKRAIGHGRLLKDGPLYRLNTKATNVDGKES
Oligonucleotide = ATGGGAGG; result = -0.0499
Oligonucleotide = GCCCGCGC; result = 0.313
Oligonucleotide = TAGAATCA; result = 0.0596
Oligonucleotide = CTATCTTC; result = -0.162
Oligonucleotide = ACATCACG; result = -0.154
Oligonucleotide = ACCTCTGG; result = -0.0498
Oligonucleotide = AAGGAGCA; result = 0.0244
Oligonucleotide = ATTCTTCC; result = -0.147

Block 2
Target: Ras GTPase-activating protein-binding protein 1, full length (G3BP1, Homo sapiens, UniProt Q13283)
Chain of UniProt Q13283 (whole entry, looked up): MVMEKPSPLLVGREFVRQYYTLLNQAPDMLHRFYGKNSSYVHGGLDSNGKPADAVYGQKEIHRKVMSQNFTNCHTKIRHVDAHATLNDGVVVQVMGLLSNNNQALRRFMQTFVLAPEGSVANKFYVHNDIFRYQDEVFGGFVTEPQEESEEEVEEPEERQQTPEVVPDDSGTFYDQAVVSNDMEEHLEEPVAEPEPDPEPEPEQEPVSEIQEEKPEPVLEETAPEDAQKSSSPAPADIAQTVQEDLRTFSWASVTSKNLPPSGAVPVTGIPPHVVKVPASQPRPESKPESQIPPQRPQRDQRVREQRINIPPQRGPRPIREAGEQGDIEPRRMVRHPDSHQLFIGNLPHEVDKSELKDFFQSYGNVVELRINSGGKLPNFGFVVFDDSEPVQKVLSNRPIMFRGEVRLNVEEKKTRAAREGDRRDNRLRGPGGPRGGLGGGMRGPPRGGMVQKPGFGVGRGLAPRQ
Technique: RNA Bind-n-Seq
Molecule type: RNA
Medium: in vitro
Tested at: 200 nM
Notes: whole 134-nt RNA, ends assumed
Added: 150 mM LiCl
Reference: input library
Reading: higher = stronger binding
Quantity: log2 enrichment
All molecules: 7-deaza-guanosine replaces G
All sequences stand within: GGGAGUUCUACAGUCCGACGAUC … UGGAAUUCUCGGGUGUCAAGG
Oligonucleotide = ACAAAGCAGGUGGGCAUCUUUGGGAAGUGGGGCAAGGGGGGGAUAGGGAGGGGGGUAACACUUUGGGAACAGGUGGUCCCAGGUCGUUUC; result = 0.176
Oligonucleotide = UUGAGAAAAGCACCCAUAAUUUGCUACUUGAGGAUUUUAUUCCCUGGAUUCUCUGGAUGCUCAUUGCAUGAAAAGUGGAAAAGUUUAGAU; result = -1.29
Oligonucleotide = UAACUUUAGAGGAGAAUCUGAUGGAUAUGGCAGUGGACGUGGAUUUGGGGAUGGCUAUAAUGGGUAUGGAGGAGGACCUGGAGGUGGCAA; result = -0.108
Oligonucleotide = CCUGUGCUACACAUCGUAUGUACCGAAUCGGGGUUUUUUUGGUUUUUUUGGUUUUUUUGGAAAGUAUUAUGUUACGCCGUUCGGAUCUGC; result = 1.03
Oligonucleotide = ACCAUGCAGGUGGGCAUCUUUGGGAAGUGGGGCAAGGGGGGGAUAGGGAGGGGGGUAACACUUUGGGAACAGGUGGACCCAGGUCGUUUC; result = -0.0269
Oligonucleotide = UGCCUCUGCGGCUAGCUGAUUUUGGGGUACUUCAUAGGAACGAGCUGUCUGGAGCACUCACAGGACUCACCCGGGUACGAAGAUUCCAAC; result = -2.37
Oligonucleotide = ACCAUGCAGGUGGGCAUCUUUGGGAAGUGGGGCAAGGGGGGGAUAGGGAGGGGGGUAACACUUUGGGAACAGGUGGUCCCAGGUCCUUUC; result = -0.292
Oligonucleotide = AAGUCCUGUGCUACACAUCGUAUGUACCGAAUCGUGUGUGUGUGUGUGUGUGUGUGUAAAGUAUUAUGUUACGCCGUUCGGAUCUGCACU; result = -0.575

Block 3
Target: Prothrombin, mature alpha-thrombin (F2, Homo sapiens, UniProt P00734)
Technique: aptamer microarray, sandwich
Molecule type: DNA with 2'F-ANA
Medium: in vitro
Tested at: 200 nM
Notes: whole 15-mer aptamer, many near background
Added: Cy3 exosite-II aptamer, 400 nM
Reading: higher = stronger binding
Quantity: mean fluorescence intensity
Oligonucleotide: GGTTGGTGTGGTTGG
Modification = 2'F-ANA at 1 3 4 8 11; result = 227 a.u.
Modification = 2'F-ANA at 1 2 4 6 10 15; result = 54.3 a.u.
Modification = 2'F-ANA at 1 3 5 7 8 9 10 12 13; result = 54.1 a.u.
Modification = 2'F-ANA at 2 4 5 9 12 13; result = 83.2 a.u.
Modification = 2'F-ANA at 2 4 5 7 11 12 13 15; result = 83.6 a.u.
Modification = 2'F-ANA at 1 5 6 10 11 13 15; result = 47.8 a.u.
Modification = 2'F-ANA at 1 2 3 6 7 8 10 11 12; result = 92 a.u.
Modification = 2'F-ANA at 2 3 4 5 6 8 10 12 13; result = 53.1 a.u.

Further values, each from its own experiment
Parent: PafA, mature enzyme, eGFP fusion (Elizabethkingia meningoseptica, UniProt Q9KJX5); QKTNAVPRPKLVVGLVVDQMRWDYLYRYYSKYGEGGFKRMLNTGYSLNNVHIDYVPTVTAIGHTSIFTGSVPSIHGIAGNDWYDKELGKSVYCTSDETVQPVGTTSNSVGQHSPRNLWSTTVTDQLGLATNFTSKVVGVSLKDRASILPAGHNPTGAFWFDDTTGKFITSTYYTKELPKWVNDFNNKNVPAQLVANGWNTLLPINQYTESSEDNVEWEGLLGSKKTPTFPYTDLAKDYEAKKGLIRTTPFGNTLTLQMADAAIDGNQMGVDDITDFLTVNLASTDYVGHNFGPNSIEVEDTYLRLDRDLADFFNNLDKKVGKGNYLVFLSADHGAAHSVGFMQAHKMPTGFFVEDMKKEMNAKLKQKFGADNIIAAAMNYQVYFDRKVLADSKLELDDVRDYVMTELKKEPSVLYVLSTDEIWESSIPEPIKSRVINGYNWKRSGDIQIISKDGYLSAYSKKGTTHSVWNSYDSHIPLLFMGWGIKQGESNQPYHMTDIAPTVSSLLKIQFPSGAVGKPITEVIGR
Change = G350A; target = tungstate, free oxyanion; test = microfluidic competitive inhibition; test system = in vitro, cell-free expressed; setting = not given, derived from inhibition constants, unchanged parent 2230 nM; scale = lower = stronger binding; quantity = oxyanion analog dissociation constant; result = 2.29 µM
